Results of several laboratories.
Lines come from different studies, so protocols differ.
Target: Serine/threonine-protein kinase STK11 (STK11, Homo sapiens, UniProt Q15831)
One construct used (Q15831 1-433): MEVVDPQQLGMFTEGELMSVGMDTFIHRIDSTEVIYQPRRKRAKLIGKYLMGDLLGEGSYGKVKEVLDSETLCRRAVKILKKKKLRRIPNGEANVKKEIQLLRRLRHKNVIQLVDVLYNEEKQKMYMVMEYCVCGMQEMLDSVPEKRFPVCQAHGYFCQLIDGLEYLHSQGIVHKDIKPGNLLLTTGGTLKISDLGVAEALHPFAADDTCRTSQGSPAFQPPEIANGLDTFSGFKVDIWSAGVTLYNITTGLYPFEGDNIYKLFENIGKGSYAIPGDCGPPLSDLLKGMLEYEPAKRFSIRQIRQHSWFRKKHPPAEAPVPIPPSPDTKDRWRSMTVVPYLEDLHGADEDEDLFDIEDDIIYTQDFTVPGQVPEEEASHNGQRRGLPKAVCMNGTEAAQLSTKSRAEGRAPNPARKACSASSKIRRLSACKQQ

| Compound | assay | system | conditions | how to read | measurement | result |
| --- | --- | --- | --- | --- | --- | --- |
| CS(=O)(=O)Nc1cccc(-c2csc3cnc(Nc4ccc(N5CCN(CCCCCOc6cccc7c6C(=O)N(C6CCC(=O)NC6=O)C7=O)CC5)cc4)nc23)c1 (stereo not drawn) | probe labelling, inhibitor, KiNativ chemoproteomics | MOLT-4 | 1 µM | – | inhibition | 1.81% |
| O=C(Cc1ccc(OCc2ccccc2)cc1)NC1(C(=O)O)CCN(C(=O)c2ccc(-c3cccc(Cl)c3)cc2)CC1 | enzyme activity, inhibitor | – | 10 µM | – | activity vs control | 101% |
| Cc1ccc(-c2c(/C=C(\C#N)C(=O)NC(C)C)n(CCCO)c3ncnc(N)c23)cc1 | cell-free assay, competition with immobilised ligand | – | 1 µM | – | remaining binding | 100% |
| NC(=O)C[C@H]1CCc2sc3ncnc(O[C@H]4CC[C@H](N5CCOCC5)CC4)c3c21 | enzyme activity, inhibitor | – | 10 µM | – | inhibition | 2% |
| CCn1cc(C(=O)O)c(=O)c2c(N)c(F)c(NC3CCCCC3)cc21 | kinase activity | – | 0.1 µM, together with: ATP at Km | – | inhibition | 11% |
| CN1CCN(Cc2ccc(NC(=O)c3cccc(C#Cc4cnc(N)c5ncccc45)c3)cc2C(F)(F)F)CC1 | cell-free assay, competition with immobilised ligand | – | 50 nM | – | remaining binding | 69% |
| Nc1ncc2c(n1)-c1c([nH]c3ccc(C4=CCOCC4)cc13)CCC2 | binding, competition with immobilised ligand | – | 1 µM | – | remaining binding | 46% |
| CC(=O)N1c2ccc(-c3ccc(CNC(=O)c4cn5cc(-c6cnc(N)nc6)nc(N6CCOCC6)c5n4)cc3)cc2CC[C@@H]1C | KINOMEscan | – | 10 µM | – | remaining binding | 100% |
| CCN1CCN(Cc2ccc(C(=O)Nc3ccc(C)c(NCc4cnc5[nH]ccc5c4OC)c3)cc2C(F)(F)F)CC1 | binding, competition with immobilised ligand | – | 1 µM | – | remaining binding | 83% |
| COc1ccc(NC(=O)Nc2ccc3c(c2)C(=O)N(C(C)CO)CC(C)C(CN(C)Cc2ccc4c(c2)OCO4)O3)cc1 (stereo not drawn) | kinase activity, KinaseProfiler | – | 0.03 µM, species human | reference: control | remaining activity | 87% |
| Cc1cnc2nc1Nc1cccc(c1)COC/C=C/COCc1cc(ccc1OCCN1CCOCC1)N2 | binding, competition with immobilised ligand | – | 0.1 µM | – | remaining binding | 57% |
| COc1cc(Nc2nccc(-c3cnn4nc(OC)ccc34)n2)cc(C(F)(F)F)c1 | binding, competition with immobilised ligand | – | 1 µM | – | remaining binding | 76% |
| C=CC(=O)Nc1cc(-c2nn(C3CCN(CCNC(=O)[C@H](C)CCC45CC6CC(CC(C6)C4)C5)CC3)c3ncnc(N)c23)ccc1Oc1ccccc1 | inhibitor, KiNativ profiling | biochemical | 2 µM | – | inhibition | 2.7% |
| CNC1C[S+]2CC[S+]3CC[S+](C1)[Ru-4]321([N]=C=S)[n]2c3ccc(OC)cc3c3c4c(c5cc(F)c[n+]1c5c32)C(=O)NC4=O (stereo not drawn) | KinomeScan | – | 0.1 µM | reference: untreated | remaining binding | 100% |
| c1ccc2c(Nc3cc(C4CCC4)[nH]n3)nc(Nc3ccc4nc[nH]c4c3)nc2c1 | enzyme activity, inhibitor | – | 0.25 µM | – | remaining activity | 24% |

Some of these lines once more:
| Compound | assay | system | conditions | how to read | measurement | result |
| --- | --- | --- | --- | --- | --- | --- |
| O=C(Cc1ccc(OCc2ccccc2)cc1)NC1(C(=O)O)CCN(C(=O)c2ccc(-c3cccc(Cl)c3)cc2)CC1 | enzyme activity, inhibitor | – | 10 µM | – | activity vs control | 101% |
| Cc1ccc(-c2c(/C=C(\C#N)C(=O)NC(C)C)n(CCCO)c3ncnc(N)c23)cc1 | cell-free assay, competition with immobilised ligand | – | 1 µM | – | remaining binding | 100% |
